# Measurements from different studies.
# Each numbered part is a random draw from the data of one study; scales do not carry over between parts.
# Chain of UniProt P41595 (whole entry, looked up): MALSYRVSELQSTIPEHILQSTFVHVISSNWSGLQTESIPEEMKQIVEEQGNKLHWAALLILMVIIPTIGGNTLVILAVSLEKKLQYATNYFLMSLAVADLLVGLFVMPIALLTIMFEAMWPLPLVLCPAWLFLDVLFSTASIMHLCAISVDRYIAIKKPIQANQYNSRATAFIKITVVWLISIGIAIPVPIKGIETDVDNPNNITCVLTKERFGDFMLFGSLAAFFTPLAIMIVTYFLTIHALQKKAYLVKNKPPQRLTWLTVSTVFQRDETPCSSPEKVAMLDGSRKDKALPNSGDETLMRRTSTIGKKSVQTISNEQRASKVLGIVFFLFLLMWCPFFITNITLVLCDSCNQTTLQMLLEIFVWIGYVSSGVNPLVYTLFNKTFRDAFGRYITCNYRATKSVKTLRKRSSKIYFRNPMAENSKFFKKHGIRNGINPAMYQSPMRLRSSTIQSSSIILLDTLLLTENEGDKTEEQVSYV
# Chain of UniProt P14416 (whole entry, looked up): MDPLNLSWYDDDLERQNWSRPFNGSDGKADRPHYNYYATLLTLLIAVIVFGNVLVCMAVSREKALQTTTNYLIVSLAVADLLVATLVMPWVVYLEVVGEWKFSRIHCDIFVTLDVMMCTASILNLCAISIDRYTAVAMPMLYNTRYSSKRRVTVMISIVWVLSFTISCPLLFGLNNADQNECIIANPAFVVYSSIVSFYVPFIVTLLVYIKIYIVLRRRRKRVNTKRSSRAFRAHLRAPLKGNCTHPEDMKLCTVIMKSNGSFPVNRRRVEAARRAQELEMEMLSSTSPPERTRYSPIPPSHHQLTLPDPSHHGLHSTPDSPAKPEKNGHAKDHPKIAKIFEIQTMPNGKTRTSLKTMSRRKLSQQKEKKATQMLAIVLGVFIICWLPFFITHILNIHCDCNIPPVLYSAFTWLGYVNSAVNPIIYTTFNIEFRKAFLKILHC
# Chain of UniProt P47898 (whole entry, looked up): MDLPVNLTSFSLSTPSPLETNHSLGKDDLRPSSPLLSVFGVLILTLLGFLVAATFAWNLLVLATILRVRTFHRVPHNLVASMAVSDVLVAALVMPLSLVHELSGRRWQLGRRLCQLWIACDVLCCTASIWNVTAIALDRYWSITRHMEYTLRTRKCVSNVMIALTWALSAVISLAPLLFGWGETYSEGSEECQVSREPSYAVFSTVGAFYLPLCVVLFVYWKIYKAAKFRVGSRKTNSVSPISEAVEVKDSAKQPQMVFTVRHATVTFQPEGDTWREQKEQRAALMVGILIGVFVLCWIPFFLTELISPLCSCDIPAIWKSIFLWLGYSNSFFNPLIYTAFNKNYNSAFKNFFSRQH

# Series 1 — read-out: enzyme activity; action: inhibitor; concentration: 0.5 µM; baseline: control
# Target: Ephrin type-B receptor 1 (EPHB1, Homo sapiens, UniProt P54762)
# Chain of UniProt P54762 (whole entry, looked up): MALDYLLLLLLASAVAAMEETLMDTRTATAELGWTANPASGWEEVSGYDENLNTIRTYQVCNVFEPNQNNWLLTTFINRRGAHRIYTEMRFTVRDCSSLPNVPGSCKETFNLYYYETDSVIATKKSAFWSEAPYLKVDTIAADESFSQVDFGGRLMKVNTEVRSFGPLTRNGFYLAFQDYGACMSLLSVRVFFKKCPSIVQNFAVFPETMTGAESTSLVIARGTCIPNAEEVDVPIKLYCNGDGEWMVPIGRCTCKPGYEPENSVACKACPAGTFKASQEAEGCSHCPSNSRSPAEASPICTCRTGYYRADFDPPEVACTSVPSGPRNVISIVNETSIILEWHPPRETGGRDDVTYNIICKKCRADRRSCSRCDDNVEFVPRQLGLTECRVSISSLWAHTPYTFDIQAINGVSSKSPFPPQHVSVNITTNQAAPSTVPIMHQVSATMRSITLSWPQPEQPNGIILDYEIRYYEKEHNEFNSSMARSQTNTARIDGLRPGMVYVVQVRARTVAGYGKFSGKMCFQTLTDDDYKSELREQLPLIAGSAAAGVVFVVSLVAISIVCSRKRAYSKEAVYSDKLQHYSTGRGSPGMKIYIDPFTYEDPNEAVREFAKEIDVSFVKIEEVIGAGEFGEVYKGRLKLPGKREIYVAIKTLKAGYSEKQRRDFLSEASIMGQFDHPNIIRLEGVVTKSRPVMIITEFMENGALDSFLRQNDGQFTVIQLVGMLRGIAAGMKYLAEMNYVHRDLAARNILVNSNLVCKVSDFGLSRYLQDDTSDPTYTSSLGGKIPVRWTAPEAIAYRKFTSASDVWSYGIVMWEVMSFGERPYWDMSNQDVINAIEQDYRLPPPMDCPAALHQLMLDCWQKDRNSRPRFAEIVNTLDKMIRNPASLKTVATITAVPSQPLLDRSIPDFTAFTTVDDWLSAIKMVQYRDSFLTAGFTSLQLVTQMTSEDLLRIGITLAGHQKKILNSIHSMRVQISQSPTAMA
SMILES,remaining activity
Oc1ccc(-c2nc(-c3ccncc3)c(-c3ccc(F)cc3)[nH]2)cc1,96.8%
CC(C)[C@H](CO)Nc1nc(Nc2cc(N)cc(Cl)c2)c2ncn(C(C)C)c2n1,59.2%
Nc1ccc2ncnc(NCCc3ccc(Oc4ccccc4)cc3)c2c1,97.9%
COc1ccc(OC)c2c(=S)c3ccccc3[nH]c12,87.1%
COc1cc2ncnc(Nc3ccc(F)c(Cl)c3)c2cc1OCCCN1CCOCC1,94.8%
O=C1NC(=O)C(c2cn(CCCn3ccnc3)c3ccccc23)=C1Nc1ccccc1,102%
CCOC(=O)c1c(C)[nH]c(/C=C2\C(=O)Nc3ccccc32)c1C,97.5%
COc1ccc(C(=O)Nc2sc3c(c2C(N)=O)CCCC3)cc1OC,95%
O=C(Nc1cccc(Nc2cc(Nc3cccc(C(F)(F)F)c3)ncn2)c1)C1CC1,100%
CO[C@H]1C[C@@H]2CC[C@@H](C)[C@@](O)(O2)C(=O)C(=O)N2CCCC[C@H]2C(=O)O[C@H]([C@H](C)C[C@@H]2CC[C@@H](O)[C@H](OC)C2)CC(=O)[C@H](C)/C=C(\C)[C@@H](O)[C@@H](OC)C(=O)[C@H](C)C[C@H](C)/C=C/C=C/C=C/1C,110%
OCC(O)CCON=C1C(c2c(O)[nH]c3ccccc23)=Nc2ccccc21 (stereo not drawn),65.9%
Cc1nc(-c2ccccc2)c(-c2ccncc2)o1,107%
COc1cc2nccc(Oc3ccc(NC(=S)NC(=O)c4ccccc4C)cc3)c2cc1OC,98.5%
O=c1c2ccccc2[nH]c(=S)n1CCN1CCC(=C(c2ccc(F)cc2)c2ccc(F)cc2)CC1,100%

# Series 2 — technique: protein binding microarray; form: double-stranded DNA, one strand shown; matrix: in vitro; concentration: not given; baseline: not given; direction: higher = stronger binding
# Target: Histone acetyltransferase KAT6A, winged helix 1, GST fusion (KAT6A, Homo sapiens, UniProt Q92794, residues 1-85)
# Setting: 8-mer, flanks averaged, mean of 2 arrays, mostly near background
# Target sequence (chain): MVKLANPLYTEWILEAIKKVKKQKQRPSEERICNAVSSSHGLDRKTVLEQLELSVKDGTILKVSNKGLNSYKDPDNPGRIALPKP
Oligonucleotide,E-score
ACTCCATG,-0.069
ACCCCATC,-0.093
CGTACGCC,0.358
CAGAACCG,0.0679
CAATGTAG,-0.26
CAGAGTAC,0.0558
AACGTTGA,-0.0539
GCCCCTAA,-0.0284

# Series 3 — technique: RNA Bind-n-Seq; form: RNA; matrix: in vitro; concentration: 100 nM; baseline: input RNA pool; direction: higher = stronger binding
# Target: RING finger protein unkempt homolog, zinc fingers 1-6, SBP tag (UNK, Homo sapiens, UniProt Q9C0B0, residues 30-357)
# Chain of UniProt Q9C0B0 (30-357, looked up): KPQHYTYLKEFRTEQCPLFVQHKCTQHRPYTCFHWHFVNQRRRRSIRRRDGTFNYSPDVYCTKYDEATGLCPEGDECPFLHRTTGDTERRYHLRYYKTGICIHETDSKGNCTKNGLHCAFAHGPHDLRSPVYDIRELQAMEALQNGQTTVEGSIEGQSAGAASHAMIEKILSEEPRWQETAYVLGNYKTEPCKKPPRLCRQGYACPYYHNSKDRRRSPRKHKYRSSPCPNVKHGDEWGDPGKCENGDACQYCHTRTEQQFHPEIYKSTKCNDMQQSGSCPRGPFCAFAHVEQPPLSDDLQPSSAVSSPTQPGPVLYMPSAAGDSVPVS
# Setting: RNA with constant flanks, vertebrate orthologous sites, ends assumed
# Shared flanks, not repeated: GGGAGUUCUACAGUCCGACGAUC … CAACAGAGGAUUGAGCAUCA
Oligonucleotide,bound/input enrichment [ratio]
UAUAUUUAGGAUGAAGCUCUUGCACCAGGUGUCACGGGUCUGGAGAACAGAUGGCUUGACGAGUUGCAAUUAUAAAUUAUUGUCCGUGGAACACAAUCCUUUAUAUAUCAACAUCACAGU,0.437
UAUUAGCGUCAUACCAGCAUAUUAACCUCUUGUCUGUGCACAGCUUCAAAUGUUACCGUCUAGUUAGAUUUUUAUUUAAAAUAUGAUAAACUGCUUUUCCCAAGACUUUUUUAAAAAGAA,2.2
GAUAUCUUCUGCAUGGAAUAUUGAAGACUUCCAUGCUUACGUUAAAUGCUAAAAUUAAGCUGCAGUACUUUAUUUCUGCAGUAUUGUUUGCUUGUGUUUAAAGUCAGACAGGAUAAAUGU,0.332
UGUCUGCCUCAUUCUAAAAUUUACAUAGUAGACCAUUUGUCAUCCAUGCUGUCCCACAAAUAGUUUUUUGUUUACGAUUUAUGACAGGUUUAUGUUACUUCUAUUUGAAUUUCUAUAUUU,1.61
AAGUAGUUCUAAGCUUGUUUGCACAGUUCUUUUUUCCAUUGGAGAUGGAAUCCAUUGCCUUAGGUCUUUUUAAAUAGUGUAUUGUUAUUGUUGGGGCUGCCUCUAUGCUUGAAAACCAGU,2.11
GACCUCCUGAACUUCUGGCUUUCAAGCUGUGGCUGUUUGACAUACUGGUUUUAUUUUCUCUACAAUUUUCCCACCUUUCUUCCCCUGUUCCUAAGGUUUGACUCAUGGAUCUUACUCUUC,1.02
CCUACAAUAAUGAAAACCUACAGGAAUUUUUUUAUUUUACAUUUUCCCCUUAGGCAUAUUUAGUAUUUUUUCCCCAGGCAGAUCAUUCUGAGUGUGCGAGUGUGUGUGCACAUGUUACAA,2.82
AUCAGGAACAGCAGAGGCUGUUUGAGCUUGGGGAAAUGAGCUUUGCUUUUUAUUUUUGAAUAGGAUACUUUUAUAUGAUGGGUGCUUUGAGUGUGAAUGCAGCAGGCUCUUCAUUUCAGA,1.17

# Single results of other studies — concentration: 10 µM
Structure (SMILES),target,read-out,technique,inhibition [%]
Cc1nc(N2CC[C@@H](O)C2)ncc1-c1cc(C(F)(F)F)cc2[nH]ncc12,"HTR2B (Homo sapiens, UniProt P41595)",binding,radioligand binding,-1.84
N#CN1CC[C@@H](C(=O)Nc2nc3c(s2)CN(C(=O)CN=[N+]=[N-])CC3)C1,"DRD2 (Homo sapiens, UniProt P14416)",binding,radioligand binding,4.82
O=C(NCc1ncc(C(F)(F)F)cc1Cl)c1ccc2c(c1)C1(CCS(=O)(=O)CC1)[C@@H](C1CC1)N2S(=O)(=O)c1ccc(F)cc1,"HTR5A (Homo sapiens, UniProt P47898)",cell-free assay,,-10.8
